Experimental data gathered from unrelated publications.
Compare with care: the assays were run in different laboratories. Several values in a cell are separate wells, animals, samples, runs or records.
CHEK1: Serine/threonine-protein kinase Chk1 (CHEK1, Homo sapiens, UniProt O14757)
Sequence of UniProt O14757 (whole entry, looked up): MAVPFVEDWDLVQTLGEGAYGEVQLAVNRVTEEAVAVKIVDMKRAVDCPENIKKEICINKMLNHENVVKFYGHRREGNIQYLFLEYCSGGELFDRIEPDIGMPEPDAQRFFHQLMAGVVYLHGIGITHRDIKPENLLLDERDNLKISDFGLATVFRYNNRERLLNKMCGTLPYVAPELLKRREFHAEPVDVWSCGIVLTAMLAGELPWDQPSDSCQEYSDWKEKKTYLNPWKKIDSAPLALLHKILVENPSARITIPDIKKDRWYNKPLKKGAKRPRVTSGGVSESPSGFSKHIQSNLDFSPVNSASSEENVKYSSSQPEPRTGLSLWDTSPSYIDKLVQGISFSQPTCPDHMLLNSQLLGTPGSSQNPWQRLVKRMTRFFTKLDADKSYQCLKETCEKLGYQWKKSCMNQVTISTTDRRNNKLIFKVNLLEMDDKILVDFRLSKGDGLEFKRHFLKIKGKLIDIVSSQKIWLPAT
CA9: Carbonic anhydrase 9 (CA9, Homo sapiens, UniProt Q16790)
PIK3CA: Phosphatidylinositol 4,5-bisphosphate 3-kinase catalytic subunit alpha isoform (PIK3CA, Homo sapiens, UniProt P42336)
Sequence of UniProt P42336 (whole entry, looked up): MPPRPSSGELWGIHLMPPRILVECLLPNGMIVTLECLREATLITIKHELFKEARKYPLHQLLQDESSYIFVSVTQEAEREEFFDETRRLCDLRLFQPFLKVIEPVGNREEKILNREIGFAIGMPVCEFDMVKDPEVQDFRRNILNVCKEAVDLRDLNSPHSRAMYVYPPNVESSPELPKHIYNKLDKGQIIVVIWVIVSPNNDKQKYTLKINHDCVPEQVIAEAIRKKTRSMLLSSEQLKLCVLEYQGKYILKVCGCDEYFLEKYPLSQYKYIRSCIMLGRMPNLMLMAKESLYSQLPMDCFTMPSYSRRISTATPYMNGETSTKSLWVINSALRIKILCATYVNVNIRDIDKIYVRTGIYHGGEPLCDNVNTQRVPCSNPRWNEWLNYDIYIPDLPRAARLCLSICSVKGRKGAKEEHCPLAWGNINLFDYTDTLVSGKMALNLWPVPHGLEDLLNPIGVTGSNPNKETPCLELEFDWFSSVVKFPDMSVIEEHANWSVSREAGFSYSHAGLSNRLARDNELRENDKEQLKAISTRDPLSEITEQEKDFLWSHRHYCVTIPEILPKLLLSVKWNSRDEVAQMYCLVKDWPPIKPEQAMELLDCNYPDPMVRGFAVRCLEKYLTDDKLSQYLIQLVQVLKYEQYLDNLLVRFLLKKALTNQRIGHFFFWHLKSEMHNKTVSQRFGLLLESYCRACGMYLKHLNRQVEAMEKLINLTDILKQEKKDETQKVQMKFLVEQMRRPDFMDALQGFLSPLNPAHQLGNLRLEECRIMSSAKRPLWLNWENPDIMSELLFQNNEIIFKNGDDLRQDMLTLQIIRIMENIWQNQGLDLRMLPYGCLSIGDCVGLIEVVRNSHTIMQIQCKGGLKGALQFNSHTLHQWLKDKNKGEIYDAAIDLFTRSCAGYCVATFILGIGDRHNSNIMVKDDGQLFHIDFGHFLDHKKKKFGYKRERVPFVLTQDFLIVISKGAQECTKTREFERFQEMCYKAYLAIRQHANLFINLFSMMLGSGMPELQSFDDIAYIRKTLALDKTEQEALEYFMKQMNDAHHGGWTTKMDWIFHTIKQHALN
DYRK1A: Dual specificity tyrosine-phosphorylation-regulated kinase 1A (DYRK1A, Homo sapiens, UniProt Q13627)
PIK3CD: Phosphatidylinositol 4,5-bisphosphate 3-kinase catalytic subunit delta isoform (PIK3CD, Homo sapiens, UniProt O00329)
Sequence of UniProt O00329 (whole entry, looked up): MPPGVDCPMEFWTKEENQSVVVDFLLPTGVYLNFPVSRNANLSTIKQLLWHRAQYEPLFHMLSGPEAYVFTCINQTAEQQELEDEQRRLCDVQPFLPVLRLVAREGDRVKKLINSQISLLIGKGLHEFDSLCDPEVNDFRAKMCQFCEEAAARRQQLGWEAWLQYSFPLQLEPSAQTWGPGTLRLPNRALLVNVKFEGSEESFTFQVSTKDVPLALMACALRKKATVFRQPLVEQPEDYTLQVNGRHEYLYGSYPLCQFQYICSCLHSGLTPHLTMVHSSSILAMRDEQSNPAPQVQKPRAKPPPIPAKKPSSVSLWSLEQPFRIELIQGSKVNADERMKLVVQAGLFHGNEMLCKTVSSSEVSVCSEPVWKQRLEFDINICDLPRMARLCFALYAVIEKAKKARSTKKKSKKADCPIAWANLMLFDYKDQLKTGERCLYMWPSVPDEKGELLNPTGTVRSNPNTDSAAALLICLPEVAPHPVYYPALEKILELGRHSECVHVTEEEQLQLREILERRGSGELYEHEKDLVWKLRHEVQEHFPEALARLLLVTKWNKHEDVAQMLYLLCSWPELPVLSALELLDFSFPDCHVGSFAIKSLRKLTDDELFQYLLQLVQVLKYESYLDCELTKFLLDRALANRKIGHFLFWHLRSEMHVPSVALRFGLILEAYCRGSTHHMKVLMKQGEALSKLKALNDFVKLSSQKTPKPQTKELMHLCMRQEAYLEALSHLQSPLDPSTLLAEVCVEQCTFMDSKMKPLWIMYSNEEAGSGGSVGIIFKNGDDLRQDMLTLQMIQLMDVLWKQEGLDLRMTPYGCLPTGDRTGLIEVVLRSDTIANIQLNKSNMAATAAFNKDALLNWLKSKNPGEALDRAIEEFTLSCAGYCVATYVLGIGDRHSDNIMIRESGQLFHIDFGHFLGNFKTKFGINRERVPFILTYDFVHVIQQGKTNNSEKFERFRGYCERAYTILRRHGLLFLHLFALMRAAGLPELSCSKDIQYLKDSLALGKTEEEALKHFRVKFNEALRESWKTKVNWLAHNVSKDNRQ
rep papain-like protease: Replicase polyprotein 1ab, papain-like protease (rep, Porcine epidemic diarrhea virus, UniProt P0C6Y4)
FLT3 ITD: Receptor-type tyrosine-protein kinase FLT3 (FLT3, Homo sapiens, UniProt P36888, ITD)
AMY2: Pancreatic alpha-amylase (AMY2, Sus scrofa, UniProt P00690)
Sequence of UniProt P00690 (whole entry, looked up): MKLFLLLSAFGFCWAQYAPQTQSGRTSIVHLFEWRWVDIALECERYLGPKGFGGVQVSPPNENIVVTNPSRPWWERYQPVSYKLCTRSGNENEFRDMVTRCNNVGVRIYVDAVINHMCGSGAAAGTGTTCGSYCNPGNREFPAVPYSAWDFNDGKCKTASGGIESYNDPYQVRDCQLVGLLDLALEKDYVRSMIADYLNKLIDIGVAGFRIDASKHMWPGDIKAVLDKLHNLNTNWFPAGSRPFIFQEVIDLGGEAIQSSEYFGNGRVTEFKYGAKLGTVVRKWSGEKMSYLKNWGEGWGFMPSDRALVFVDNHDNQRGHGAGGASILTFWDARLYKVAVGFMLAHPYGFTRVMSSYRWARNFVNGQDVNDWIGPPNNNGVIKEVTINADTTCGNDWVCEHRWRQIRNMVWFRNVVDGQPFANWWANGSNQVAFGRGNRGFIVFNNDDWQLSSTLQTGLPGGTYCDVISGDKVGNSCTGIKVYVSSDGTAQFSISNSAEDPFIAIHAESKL
Sequence of UniProt Q96GD4 (whole entry, looked up): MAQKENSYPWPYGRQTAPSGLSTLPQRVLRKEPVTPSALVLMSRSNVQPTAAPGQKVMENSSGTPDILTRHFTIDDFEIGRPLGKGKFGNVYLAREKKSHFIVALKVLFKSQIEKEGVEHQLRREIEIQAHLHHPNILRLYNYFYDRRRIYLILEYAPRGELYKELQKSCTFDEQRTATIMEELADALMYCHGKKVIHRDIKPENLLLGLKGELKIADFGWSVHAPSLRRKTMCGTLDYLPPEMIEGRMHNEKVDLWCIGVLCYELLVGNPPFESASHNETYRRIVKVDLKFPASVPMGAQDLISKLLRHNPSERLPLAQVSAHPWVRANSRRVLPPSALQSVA
Sequence of UniProt P08684 (whole entry, looked up): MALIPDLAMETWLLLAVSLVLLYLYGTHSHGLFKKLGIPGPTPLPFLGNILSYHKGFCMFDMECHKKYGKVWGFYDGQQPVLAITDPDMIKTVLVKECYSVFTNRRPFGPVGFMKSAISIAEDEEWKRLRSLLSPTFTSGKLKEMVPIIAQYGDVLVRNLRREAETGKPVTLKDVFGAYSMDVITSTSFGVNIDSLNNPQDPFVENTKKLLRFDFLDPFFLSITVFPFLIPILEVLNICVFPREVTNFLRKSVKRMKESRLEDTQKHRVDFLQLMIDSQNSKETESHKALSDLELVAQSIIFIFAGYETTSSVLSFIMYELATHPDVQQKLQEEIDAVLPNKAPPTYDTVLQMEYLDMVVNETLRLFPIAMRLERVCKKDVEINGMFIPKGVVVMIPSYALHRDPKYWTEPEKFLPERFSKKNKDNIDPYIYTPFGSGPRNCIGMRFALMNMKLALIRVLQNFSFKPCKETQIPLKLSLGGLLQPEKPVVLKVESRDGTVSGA
Sequence of UniProt P27338 (whole entry, looked up): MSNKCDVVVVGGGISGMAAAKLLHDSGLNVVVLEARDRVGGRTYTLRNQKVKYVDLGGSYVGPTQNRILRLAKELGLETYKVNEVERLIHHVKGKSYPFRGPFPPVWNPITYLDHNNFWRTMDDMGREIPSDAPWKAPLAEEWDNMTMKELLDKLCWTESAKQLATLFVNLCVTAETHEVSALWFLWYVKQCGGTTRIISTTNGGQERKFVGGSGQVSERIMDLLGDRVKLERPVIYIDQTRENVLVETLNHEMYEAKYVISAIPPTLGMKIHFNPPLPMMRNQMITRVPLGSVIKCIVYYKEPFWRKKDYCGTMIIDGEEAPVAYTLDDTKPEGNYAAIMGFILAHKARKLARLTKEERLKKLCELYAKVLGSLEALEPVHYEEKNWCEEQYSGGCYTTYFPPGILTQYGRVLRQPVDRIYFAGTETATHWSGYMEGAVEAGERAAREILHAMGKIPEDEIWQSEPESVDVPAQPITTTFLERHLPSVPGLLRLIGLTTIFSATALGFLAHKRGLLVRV
Sequence of UniProt P07550 (whole entry, looked up): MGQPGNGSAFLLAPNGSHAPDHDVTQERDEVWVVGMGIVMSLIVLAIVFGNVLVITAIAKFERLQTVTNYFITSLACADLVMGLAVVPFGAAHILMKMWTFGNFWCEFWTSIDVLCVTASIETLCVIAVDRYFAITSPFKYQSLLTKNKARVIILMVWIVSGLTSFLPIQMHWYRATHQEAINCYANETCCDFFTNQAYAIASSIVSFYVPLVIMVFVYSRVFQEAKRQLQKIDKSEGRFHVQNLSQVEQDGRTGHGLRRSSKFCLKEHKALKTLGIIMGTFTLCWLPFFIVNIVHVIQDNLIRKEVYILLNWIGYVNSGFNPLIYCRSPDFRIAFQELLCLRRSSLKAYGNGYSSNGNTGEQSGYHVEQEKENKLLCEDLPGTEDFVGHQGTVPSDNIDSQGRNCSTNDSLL

C/C(=N\CC(C)C)c1c(O)c2ccccc2oc1=O
IC50 (Myosin-7 (MYH7, Bos taurus, UniProt Q9BE39); ATPase activity, inhibitor): < 100000 nM

COc1cc(-c2ccc3c(c2)Nc2ccc(C(C)(C)C(=O)Nc4ccc(N5CCOCC5)cc4)cc2NC3=O)ccc1[N+](=O)[O-]
IC50 (CHEK1; enzyme activity, inhibitor): 5.26 nM

O=C1Nc2ccccc2C1=Nc1cccc(Cl)c1
IC50 (PIK3CG (Homo sapiens, UniProt P48736); enzyme activity, inhibitor, ADP detection): 96.8 nM

Cc1cc(C)n(C(C)C(=O)Nc2ccc(NC(=O)Cc3ccc(S(N)(=O)=O)cc3)cc2Cl)n1 (stereo not shown)
IC50 (CA9; enzyme activity, inhibitor): 118 nM

Cc1nc(Nc2ccc3c(c2)/C(=C/c2ccccc2C)C(=O)N3C)c2ccccc2n1
IC50 (PIK3CA; enzyme activity, inhibitor, ADP detection): 35.3 nM

O=C(NCc1cc(O)c(O)c(Br)c1)c1cccc(CCl)c1
IC50 (Replicase polyprotein 1ab, main protease (rep, Porcine epidemic diarrhea virus, UniProt P0C6Y4); enzyme activity, inhibitor, FRET): 2340 nM

Cc1cc(C(=O)Nc2ccc(NC(=O)Nc3ccccc3)cc2)cc(S(N)(=O)=O)c1C
IC50 (CA9; enzyme activity, inhibitor): 248 nM

COc1cc(-c2ccc3c(c2)Nc2ccc(NC(=O)Cc4cnc[nH]4)cc2NC3=O)ccc1[N+](=O)[O-]
IC50 (CHEK1; enzyme activity, inhibitor): 64.2 nM

Cc1nc2c(F)cc(-c3ccnc(Nc4ccc5c(=O)cc(N6CCOCC6)oc5c4)n3)cc2n1C(C)C
IC50 (Cyclin-dependent kinase 4, with cyclin D1 (CDK4, Homo sapiens, UniProt P11802); enzyme activity, inhibitor, radiometric): 4.4 nM

FC(F)(F)C1CCCN(c2nccc(-c3cnn4ncccc34)n2)C1 (stereo not shown)
IC50 (DYRK1A; cell-free assay, TR-FRET): 398 nM

Nc1cccc(-c2ccc3c(c2)Nc2ccc(CC(=O)O)cc2NC3=O)c1
IC50 (CHEK1; enzyme activity, inhibitor): > 10000 nM

O=C1C(=Nc2ccccc2I)c2ccccc2N1Cc1ccc([N+](=O)[O-])cc1
IC50 (PIK3CD; enzyme activity, inhibitor, ADP detection): 7.71 nM

CC(C)(C)C(=O)COC(=O)C=Cc1ccc(Nc2cccc(S(N)(=O)=O)c2)cc1
IC50 (CA9; enzyme activity, inhibitor): 150 nM

COc1ccc(C(=O)NCc2ccc(O)c(O)c2)cc1
IC50 (rep papain-like protease; enzyme activity, inhibitor, FRET): 8030 nM

FC(F)(F)C1CCN(c2nccc(-c3cnn4ncccc34)n2)CC1
IC50 (DYRK1A; cell-free assay, TR-FRET): 479 nM

O=C1Nc2ccccc2/C1=N/c1ccccc1Br
IC50 (PIK3CD; enzyme activity, inhibitor, ADP detection): 611 nM

CC(C)(C)OC(=O)NCc1ccc(-c2cccc(C(=O)Nc3ccc(S(N)(=O)=O)cc3)c2)cc1
IC50 (CA9; enzyme activity, inhibitor): 75 nM

O=C(NCCc1ccccn1)c1ccc(-c2nc3ccc4[nH]ncc4c3c3c2CCCC3)cc1
IC50 (FLT3 ITD; enzyme activity, inhibitor): 670 nM

COc1cc(N)c(Cl)cc1NC(=O)Nc1cnc(C#N)cn1
IC50 (CHEK1; enzyme activity, inhibitor): 3.93 nM

Cc1cccc(N=C2C(=O)Nc3ccccc32)c1
IC50 (PIK3CA; enzyme activity, inhibitor, ADP detection): 290 nM

N#C[C@@]12C[C@@H]1[C@@H](n1cnc3c(N[C@@H](C4CCC4)C4CC4)nc(I)nc31)[C@H](O)[C@@H]2O
IC50 (Cytochrome P450 3A4 (CYP3A4, Homo sapiens, UniProt P08684); enzyme activity, inhibitor): > 20000 nM and 35600 nM

COc1cc(-c2ccc3c(c2)Nc2ccc(NC(=O)c4ccccn4)cc2NC3=O)ccc1[N+](=O)[O-]
IC50 (CHEK1; enzyme activity, inhibitor): 66.6 nM

Cc1cn(-c2ccccc2)nc1C1(CNC(=O)c2ccc(F)c(F)c2-c2ccc(C(F)(F)F)cc2)NC(=O)NC1=O (single isomer, unassigned)
IC50 (A disintegrin and metalloproteinase with thrombospondin motifs 7 (Homo sapiens, UniProt Q9UKP4); enzyme activity, inhibitor, FRET): 7.45 nM

Clc1ccc(C2(c3ccc(-c4ccnc5[nH]ccc45)cc3)CCNCC2)cc1
IC50 (LATS1 (Homo sapiens, UniProt O95835); enzyme activity, inhibitor, radiometric): 8 nM

CN(C)C(=O)c1cc2cnc(Nc3ccc4c(=O)cc(N5CCNCC5)oc4c3)nc2n1C1CCCC1
IC50 (PIK3CD; enzyme activity, inhibitor, radiometric): 6050 nM

O=C1C(=Nc2ccc(Cl)cc2Br)c2ccccc2N1Cc1ccc(Br)cc1
IC50 (PIK3CD; enzyme activity, inhibitor, ADP detection): 61.1 nM

NS(=O)(=O)c1ccc(NC(=O)c2c3c(nc4ccccc24)C(=Cc2ccco2)CCC3)cc1
IC50 (CA9; enzyme activity, inhibitor): 197 nM

O=C(CSc1nc2ccccc2cc1C=Nn1c(S)nnc1-c1ccccc1)Nc1ccc(Cl)cc1
IC50 (PPO3 (Agaricus bisporus, UniProt C7FF04); enzyme activity, inhibitor): 25700 nM

Fc1ccc(/C=N/N=C/c2ccc(F)cc2)cc1
IC50 (AMY2; enzyme activity, inhibitor): 295000 nM

Cc1nn(C)c2ncc(C(=O)NCC3CC(Br)=NO3)c(Cl)c12 (stereo not shown)
IC50 (PREP (Homo sapiens, UniProt P48147); enzyme activity, inhibitor, fluorescence): ~500000 nM

Cc1ccc2[nH]c(=O)c(CNC3CCCCC3)cc2c1
IC50 (ADRA1B (Homo sapiens, UniProt P35368); calcium signal, antagonist): 2880 nM

O=Cc1ccc(-c2ccc(-c3[nH]nc4c3Cc3cc(CNC5CCC(O)CC5)ccc3-4)s2)s1 (stereo not shown)
IC50 (CHEK1; enzyme activity, inhibitor): 949 nM

COCCCNC(=O)c1ccc(-c2nc3ccc4[nH]ncc4c3c3c2CCCC3)cc1
IC50 (FLT3 ITD; enzyme activity, inhibitor): > 1000 nM

Cc1nc(N(Cc2ccccc2)c2ccc3c(c2)/C(=C/c2ccccc2)C(=O)N3Cc2ccccc2)c2ccccc2n1 (mixture of isomers)
IC50 (PIK3CD; enzyme activity, inhibitor, ADP detection): 342 nM

CN1CCN(c2ccc(Nc3ncc4cc(C#N)c(=O)n(C5CCCC5)c4n3)cc2)CC1
IC50 (MARK1 (Homo sapiens, UniProt Q9P0L2); enzyme activity, inhibitor): 541 nM

CN1CCN(C(=O)[C@H](CCCN[C@@H]2C[C@H]2c2ccc(F)cc2)NC(=O)c2ccc(-n3ccnn3)cc2)CC1
IC50 (MAOB (Homo sapiens, UniProt P27338); enzyme activity, inhibitor; with preincubation): > 25000 nM and 34300 nM

O=C(CCc1ccc(Cl)cc1)N1C(=O)C(=Nc2ccc(Cl)cc2Br)c2ccccc21
IC50 (PIK3CD; enzyme activity, inhibitor, ADP detection): 710 nM

COc1cc(-c2ccc3c(c2)Nc2ccc(CC(=O)N4CCOCC4)cc2NC3=O)ccc1[N+](=O)[O-]
IC50 (CHEK1; enzyme activity, inhibitor): 5.76 nM

CNC(=O)c1ccc(N2CCN(C(=O)c3ccc(S(N)(=O)=O)c(Br)c3)CC2)c2cc[nH]c12
IC50 (CA9; enzyme activity, inhibitor): 38.9 nM

Cn1nc2c(=O)n(C3CC3)ncc2c1[C@](O)(c1cnc(C(F)(F)F)c(Cl)c1)C(F)(F)F
IC50 (Cytochrome P450 2C9 (CYP2C9, Homo sapiens, UniProt P11712); enzyme activity, inhibitor; human, liver microsomes; pH 7.4): > 20000 nM

CCC(NC(=O)Nc1ccc(NC(=O)C2CCCO2)cc1)c1cccc(S(N)(=O)=O)c1 (stereo not shown)
IC50 (CA9; enzyme activity, inhibitor): 615 nM

Fc1cccc(/C=N/N=C/c2cccc(F)c2)c1
IC50 (AMY2; enzyme activity, inhibitor): 332000 nM

Cc1cc2c(OCC(O)CNC(C)(C)C)cccc2[nH]1 (stereo not shown)
IC50 (ADRB2 (Homo sapiens, UniProt P07550); calcium signal, antagonist, fluorescence): 0.7 nM

O=C1C(=Nc2cccc(Cl)c2)c2ccccc2N1Cc1ccc([N+](=O)[O-])cc1
IC50 (PIK3CA; enzyme activity, inhibitor, ADP detection): 18.3 nM

COc1cc(-c2ccc3c(c2)Nc2ccc(NC(=O)CCS(=O)(=O)c4ccccc4)cc2NC3=O)ccc1[N+](=O)[O-]
IC50 (CHEK1; enzyme activity, inhibitor): 7.17 nM

Clc1ccc(/C=N/N=C/c2ccc(Cl)cc2)cc1
IC50 (AMY2; enzyme activity, inhibitor): 494000 nM

CN(C)c1ccc(C(=O)NCc2cc(O)c(O)c(Br)c2)cc1
IC50 (rep papain-like protease; enzyme activity, inhibitor, FRET): 7130 nM

CN(C)C(=O)c1cc2cnc(Nc3ccc(-c4cccc5c(=O)cc(N6CCOCC6)oc45)cc3)nc2n1C1CCCC1
IC50 (Aurora kinase B (AURKB, Homo sapiens, UniProt Q96GD4); enzyme activity, inhibitor): 32.9 nM and < 33 nM

CC(Sc1ccc(NC(=O)c2ccccc2C(=O)O)cc1)C(=O)Nc1ccc(S(N)(=O)=O)cc1 (stereo not shown)
IC50 (CA9; enzyme activity, inhibitor): 30.9 nM

CN(C)CCNC(=O)c1ccc(-c2nc3ccc4[nH]ncc4c3c3c2CCCC3)c(F)c1
IC50 (FLT3 (Homo sapiens, UniProt P36888, D835Y); enzyme activity, inhibitor): 39 nM

CN(C)C1CCN(c2nccc(-c3cnn4ncccc34)n2)CC1
IC50 (DYRK1A; cell-free assay, TR-FRET): 631 nM

Cc1ccc(CN2C(=O)C(=Nc3cccc(C)c3)c3ccccc32)cc1
IC50 (PIK3CA; enzyme activity, inhibitor, ADP detection): 17.9 nM

For quick reference, copied from above:
Clc1ccc(C2(c3ccc(-c4ccnc5[nH]ccc45)cc3)CCNCC2)cc1
IC50 (LATS1 (Homo sapiens, UniProt O95835); enzyme activity, inhibitor, radiometric): 8 nM

CN(C)C(=O)c1cc2cnc(Nc3ccc4c(=O)cc(N5CCNCC5)oc4c3)nc2n1C1CCCC1
IC50 (PIK3CD; enzyme activity, inhibitor, radiometric): 6050 nM

O=C1C(=Nc2ccc(Cl)cc2Br)c2ccccc2N1Cc1ccc(Br)cc1
IC50 (PIK3CD; enzyme activity, inhibitor, ADP detection): 61.1 nM

NS(=O)(=O)c1ccc(NC(=O)c2c3c(nc4ccccc24)C(=Cc2ccco2)CCC3)cc1
IC50 (CA9; enzyme activity, inhibitor): 197 nM

O=C(CSc1nc2ccccc2cc1C=Nn1c(S)nnc1-c1ccccc1)Nc1ccc(Cl)cc1
IC50 (PPO3 (Agaricus bisporus, UniProt C7FF04); enzyme activity, inhibitor): 25700 nM

Fc1ccc(/C=N/N=C/c2ccc(F)cc2)cc1
IC50 (AMY2; enzyme activity, inhibitor): 295000 nM

Cc1nn(C)c2ncc(C(=O)NCC3CC(Br)=NO3)c(Cl)c12 (stereo not shown)
IC50 (PREP (Homo sapiens, UniProt P48147); enzyme activity, inhibitor, fluorescence): ~500000 nM

Cc1ccc2[nH]c(=O)c(CNC3CCCCC3)cc2c1
IC50 (ADRA1B (Homo sapiens, UniProt P35368); calcium signal, antagonist): 2880 nM
